Measurements of several laboratories.
“And” joins repeats or separate records; there may be more than shown. ± marks the error that the study gave.
nadD: Probable nicotinate-nucleotide adenylyltransferase (nadD, Mycobacterium tuberculosis, UniProt P9WJJ5)
Chain of UniProt P28335 (whole entry, looked up): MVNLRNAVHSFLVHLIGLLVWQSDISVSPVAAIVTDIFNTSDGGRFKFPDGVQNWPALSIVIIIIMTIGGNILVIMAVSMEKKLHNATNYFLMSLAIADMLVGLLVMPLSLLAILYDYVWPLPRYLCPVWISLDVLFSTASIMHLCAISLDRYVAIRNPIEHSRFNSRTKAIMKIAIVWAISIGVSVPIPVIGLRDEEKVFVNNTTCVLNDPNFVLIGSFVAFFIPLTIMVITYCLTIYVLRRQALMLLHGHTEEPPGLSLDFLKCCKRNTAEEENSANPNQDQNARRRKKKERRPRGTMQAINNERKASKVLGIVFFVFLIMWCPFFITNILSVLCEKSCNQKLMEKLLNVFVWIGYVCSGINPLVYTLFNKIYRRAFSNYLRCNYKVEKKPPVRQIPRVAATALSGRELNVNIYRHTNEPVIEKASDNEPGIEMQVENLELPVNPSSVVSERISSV
Chain of UniProt P08908 (whole entry, looked up): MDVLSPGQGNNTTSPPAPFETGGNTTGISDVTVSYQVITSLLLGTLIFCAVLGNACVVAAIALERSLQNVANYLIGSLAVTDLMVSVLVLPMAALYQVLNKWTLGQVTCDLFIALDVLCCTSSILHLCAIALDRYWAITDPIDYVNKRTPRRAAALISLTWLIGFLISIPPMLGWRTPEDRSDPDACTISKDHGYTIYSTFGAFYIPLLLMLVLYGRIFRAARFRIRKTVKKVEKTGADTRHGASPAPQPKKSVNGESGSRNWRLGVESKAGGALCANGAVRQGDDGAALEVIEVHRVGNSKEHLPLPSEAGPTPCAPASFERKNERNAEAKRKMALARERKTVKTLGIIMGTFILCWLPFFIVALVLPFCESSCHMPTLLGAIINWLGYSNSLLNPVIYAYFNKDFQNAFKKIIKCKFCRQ
Chain of UniProt P33533 (whole entry, looked up): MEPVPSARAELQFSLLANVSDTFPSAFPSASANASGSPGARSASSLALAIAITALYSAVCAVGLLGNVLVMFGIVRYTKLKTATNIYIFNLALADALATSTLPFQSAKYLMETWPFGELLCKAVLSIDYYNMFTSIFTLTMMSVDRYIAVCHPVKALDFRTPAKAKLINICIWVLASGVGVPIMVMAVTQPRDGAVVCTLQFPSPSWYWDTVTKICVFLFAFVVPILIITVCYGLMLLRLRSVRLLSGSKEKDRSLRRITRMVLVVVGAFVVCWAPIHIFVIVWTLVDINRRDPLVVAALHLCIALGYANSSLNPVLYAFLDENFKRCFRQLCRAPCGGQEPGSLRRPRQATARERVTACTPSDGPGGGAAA
Chain of UniProt Q9Y5N1 (whole entry, looked up): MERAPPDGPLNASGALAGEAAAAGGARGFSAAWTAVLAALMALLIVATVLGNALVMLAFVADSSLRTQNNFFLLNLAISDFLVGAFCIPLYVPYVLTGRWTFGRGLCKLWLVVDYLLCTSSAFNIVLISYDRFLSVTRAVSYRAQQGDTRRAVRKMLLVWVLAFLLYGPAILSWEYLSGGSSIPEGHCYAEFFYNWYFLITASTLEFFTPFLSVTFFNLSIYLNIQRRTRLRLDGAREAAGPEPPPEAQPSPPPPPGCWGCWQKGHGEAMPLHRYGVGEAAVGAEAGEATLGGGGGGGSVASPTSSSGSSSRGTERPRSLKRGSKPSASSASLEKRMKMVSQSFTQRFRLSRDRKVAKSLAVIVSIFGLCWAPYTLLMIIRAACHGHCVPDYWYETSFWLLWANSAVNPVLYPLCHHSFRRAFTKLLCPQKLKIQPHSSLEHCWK
Chain of UniProt P17787 (whole entry, unmodified, looked up): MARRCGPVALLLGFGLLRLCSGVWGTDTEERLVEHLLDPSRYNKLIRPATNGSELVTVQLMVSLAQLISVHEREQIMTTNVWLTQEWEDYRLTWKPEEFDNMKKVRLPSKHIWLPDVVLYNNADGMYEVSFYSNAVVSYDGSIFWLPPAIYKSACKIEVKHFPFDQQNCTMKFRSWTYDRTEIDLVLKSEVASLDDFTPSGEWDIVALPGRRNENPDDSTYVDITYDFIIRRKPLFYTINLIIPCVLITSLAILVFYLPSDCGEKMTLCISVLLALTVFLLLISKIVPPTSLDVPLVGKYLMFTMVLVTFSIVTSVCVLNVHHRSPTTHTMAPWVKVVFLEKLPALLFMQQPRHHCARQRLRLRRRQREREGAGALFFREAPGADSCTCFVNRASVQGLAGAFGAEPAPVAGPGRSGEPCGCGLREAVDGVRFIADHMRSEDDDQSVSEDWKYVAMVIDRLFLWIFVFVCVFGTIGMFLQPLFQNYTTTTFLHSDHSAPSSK
Chain of UniProt O95180 (whole entry, looked up): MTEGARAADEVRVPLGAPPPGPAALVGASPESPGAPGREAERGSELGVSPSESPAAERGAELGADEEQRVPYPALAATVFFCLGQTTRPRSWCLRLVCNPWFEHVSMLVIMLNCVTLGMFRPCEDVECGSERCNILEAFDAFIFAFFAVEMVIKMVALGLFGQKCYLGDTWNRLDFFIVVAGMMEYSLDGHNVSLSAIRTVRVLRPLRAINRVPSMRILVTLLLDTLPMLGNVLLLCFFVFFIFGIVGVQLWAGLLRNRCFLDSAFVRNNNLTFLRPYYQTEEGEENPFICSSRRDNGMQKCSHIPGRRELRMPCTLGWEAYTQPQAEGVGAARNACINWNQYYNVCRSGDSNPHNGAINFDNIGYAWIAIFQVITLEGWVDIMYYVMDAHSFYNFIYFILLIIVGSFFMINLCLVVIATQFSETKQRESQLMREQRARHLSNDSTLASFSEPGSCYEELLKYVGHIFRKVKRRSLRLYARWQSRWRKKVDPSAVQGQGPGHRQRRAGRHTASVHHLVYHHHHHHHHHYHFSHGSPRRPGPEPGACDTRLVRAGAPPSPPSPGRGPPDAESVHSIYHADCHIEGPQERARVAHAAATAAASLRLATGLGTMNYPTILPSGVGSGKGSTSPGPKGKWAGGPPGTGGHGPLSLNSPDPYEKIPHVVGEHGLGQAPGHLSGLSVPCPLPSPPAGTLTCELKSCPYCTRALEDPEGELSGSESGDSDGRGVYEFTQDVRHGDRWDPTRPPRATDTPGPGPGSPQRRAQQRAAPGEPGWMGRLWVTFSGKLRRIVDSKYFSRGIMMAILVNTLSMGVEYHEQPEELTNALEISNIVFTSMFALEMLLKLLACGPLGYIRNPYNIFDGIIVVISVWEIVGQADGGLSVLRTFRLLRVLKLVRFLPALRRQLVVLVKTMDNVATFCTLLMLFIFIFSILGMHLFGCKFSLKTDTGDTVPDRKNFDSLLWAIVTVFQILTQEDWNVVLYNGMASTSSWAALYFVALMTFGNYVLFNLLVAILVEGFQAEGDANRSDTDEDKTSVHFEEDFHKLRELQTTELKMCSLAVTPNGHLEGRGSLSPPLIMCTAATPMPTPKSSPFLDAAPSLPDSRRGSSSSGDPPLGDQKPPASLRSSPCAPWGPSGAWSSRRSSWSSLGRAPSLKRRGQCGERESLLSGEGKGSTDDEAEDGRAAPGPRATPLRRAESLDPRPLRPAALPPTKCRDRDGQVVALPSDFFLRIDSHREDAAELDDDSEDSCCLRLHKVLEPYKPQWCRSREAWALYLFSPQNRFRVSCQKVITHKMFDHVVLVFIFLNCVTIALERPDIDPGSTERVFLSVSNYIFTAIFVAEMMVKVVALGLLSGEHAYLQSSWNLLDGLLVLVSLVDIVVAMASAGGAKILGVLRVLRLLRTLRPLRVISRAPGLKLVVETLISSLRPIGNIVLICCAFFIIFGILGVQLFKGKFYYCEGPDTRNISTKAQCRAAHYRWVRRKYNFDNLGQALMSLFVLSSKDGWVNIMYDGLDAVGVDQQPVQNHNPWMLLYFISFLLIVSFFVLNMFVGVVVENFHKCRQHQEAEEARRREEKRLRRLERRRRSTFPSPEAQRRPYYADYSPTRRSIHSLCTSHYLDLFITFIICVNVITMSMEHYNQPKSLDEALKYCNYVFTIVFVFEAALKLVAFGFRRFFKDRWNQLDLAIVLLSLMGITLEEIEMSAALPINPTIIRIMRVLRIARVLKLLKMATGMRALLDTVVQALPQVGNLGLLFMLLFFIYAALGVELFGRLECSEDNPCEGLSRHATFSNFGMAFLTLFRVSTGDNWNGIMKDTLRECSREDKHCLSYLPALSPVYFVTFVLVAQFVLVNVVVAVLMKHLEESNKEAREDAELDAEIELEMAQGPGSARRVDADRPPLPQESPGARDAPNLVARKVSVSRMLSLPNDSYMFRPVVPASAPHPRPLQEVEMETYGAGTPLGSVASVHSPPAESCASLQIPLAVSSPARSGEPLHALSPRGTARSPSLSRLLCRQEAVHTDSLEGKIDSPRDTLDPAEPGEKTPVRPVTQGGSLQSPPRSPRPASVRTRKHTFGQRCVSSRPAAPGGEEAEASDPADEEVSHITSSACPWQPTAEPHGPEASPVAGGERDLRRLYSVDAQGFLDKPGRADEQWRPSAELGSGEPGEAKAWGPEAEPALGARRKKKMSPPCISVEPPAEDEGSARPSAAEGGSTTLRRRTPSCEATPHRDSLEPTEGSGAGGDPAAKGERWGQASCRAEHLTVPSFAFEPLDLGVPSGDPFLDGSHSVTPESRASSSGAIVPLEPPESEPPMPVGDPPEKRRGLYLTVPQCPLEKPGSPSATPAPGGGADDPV
Chain of UniProt P10635 (whole entry, looked up): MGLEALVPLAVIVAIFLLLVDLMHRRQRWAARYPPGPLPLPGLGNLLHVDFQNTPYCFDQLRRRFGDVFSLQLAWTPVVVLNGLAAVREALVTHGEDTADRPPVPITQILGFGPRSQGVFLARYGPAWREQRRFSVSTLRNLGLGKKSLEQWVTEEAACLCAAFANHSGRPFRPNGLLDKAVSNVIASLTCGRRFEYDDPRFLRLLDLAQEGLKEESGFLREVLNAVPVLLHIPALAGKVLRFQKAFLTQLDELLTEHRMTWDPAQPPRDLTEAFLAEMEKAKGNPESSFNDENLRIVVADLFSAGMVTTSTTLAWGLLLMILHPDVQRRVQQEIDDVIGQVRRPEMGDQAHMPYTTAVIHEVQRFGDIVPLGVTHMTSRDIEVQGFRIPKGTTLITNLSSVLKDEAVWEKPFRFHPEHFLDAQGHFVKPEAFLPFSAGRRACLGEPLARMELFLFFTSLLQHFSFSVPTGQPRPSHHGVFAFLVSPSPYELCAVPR

CCn1cc(C(=O)NCc2ccncc2)c(=O)c2cc(F)c(N3CCN(C(=O)c4ccco4)CC3)cc21
IC50 (nadD; enzyme activity, inhibitor, released pyrophosphate): 76.1 ± 16.4 µM

C[C@]12CC[C@H]3[C@@H](CCC4=CC(=O)CC[C@@]43C)[C@@H]1CC[C@@H]2O
Kd (mouse anti-cortisol Fab 17; native MS titration; 200 mM ammonium acetate; 1.5% DMSO, 0.5% methanol, with: Fab 100 nM): 26 ± 8 µM

C[C@H](N)Cc1ccccc1
Kb (Histamine H3 receptor (HRH3, Homo sapiens, UniProt Q9Y5N1); GTPγS binding, antagonist; cell membranes): > 10 µM

CCn1cc(C(=O)NCc2cccc(F)c2)c(=O)c2cc(F)c(N3CCN(C(=O)c4ccco4)CC3)cc21
IC50 (nadD; enzyme activity, inhibitor, released pyrophosphate): 13.3 ± 2.9 µM

GsMTx4
Kd (stretch-activated cation channel, rat; ion current, inhibitor, outside-out patch clamp; rat astrocytes; holding -50 mV, pressure-activated): 0.631 ± 0.24 µM

CCn1cc(C(=O)Nc2ncc(C)s2)c(=O)c2cc(F)c(N3CCN(C(=O)c4ccco4)CC3)cc21
IC50 (nadD; enzyme activity, inhibitor, released pyrophosphate): > 100 µM

[C-]#[O+]
Kd (Vibrio cholerae H-NOX Fe(II); gaseous ligand binding; 24 °C): < 50 µM

CN1CC[C@]2(c3cccc(O)c3)Cc3nc4ccccc4cc3C[C@H]2C1
EC50 (Delta-type opioid receptor (Oprd1, Rattus norvegicus, UniProt P33533); GTPγS binding, agonist, radiometric; cell membranes): > 100 µM

COc1ccc2[nH]cc(CCNC(C)C)c2c1
EC50 (5-hydroxytryptamine receptor 1A (HTR1A, Homo sapiens, UniProt P08908); calcium signal, agonist): > 10 µM

Ic1cncc(OC[C@@H]2CCN2)c1
IC50 (Neuronal acetylcholine receptor; alpha4/beta2 (Homo sapiens, UniProt P17787+P43681, F144Q); binding, inhibitor; 5 h, room temperature, with: 5 nM [3H]epibatidine): 0.04 ± 0.0019 µM

CC1CCC(C(C)C)C(OC(=O)Cn2c(COc3ccccc3)[n+](C)c3ccccc32)C1 (stereo not shown)
IC50 (nadD; released PPi detection): 17.9 ± 2.2 µM

O=c1[nH]c2ccccc2n1C1CCN(CCCC(c2ccc(F)cc2)c2ccc(F)cc2)CC1
IC50 (Voltage-dependent T-type calcium channel subunit alpha-1H (CACNA1H, Homo sapiens, UniProt O95180); calcium current, blocker, automated patch clamp; tonic block, holding -90 mV): 7.2 ± 1.2 µM

[Tb+3]
Kd (pglB (Campylobacter lari, UniProt B9KDD4); binding, luminescence): 1.8 µM

NC(=O)c1cccnc1
Ki (Halyomorpha halys Nan-Iav W323A; [3H]-AP competition binding): > 10000 µM

CCN(CC)CCc1c[nH]c2ccc(OC)cc12
EC50 (5-hydroxytryptamine receptor 2A (HTR2A, Homo sapiens, UniProt P28223); calcium signal, agonist): 0.00811 µM

CCn1cc(C(=O)NCc2ccccc2)c(=O)c2cc(F)c(N3CCN(C(=O)c4ccco4)CC3)cc21
IC50 (nadD; enzyme activity, inhibitor, released pyrophosphate): 3.7 ± 0.6 µM

COc1cc([N+](=O)[O-])c(OC)cc1CCNCc1ccccc1OC
Ki (5-hydroxytryptamine receptor 2C (HTR2C, Homo sapiens, UniProt P28335); ligand displacement, radioligand): ~0.001 µM and 0.00106 µM

CNC(C)Cc1ccc2c(c1)OCO2 (stereo not shown)
Kd (Cytochrome P450 2D6 (CYP2D6, Homo sapiens, UniProt P10635); binding; proteoliposomes): 17 to 56 µM

CCN(CC)CCNC(=O)c1cn(CC)c2cc(N3CCN(C(=O)c4ccco4)CC3)c(F)cc2c1=O
IC50 (nadD; enzyme activity, inhibitor, released pyrophosphate): > 100 µM

Repeated from above:
CCn1cc(C(=O)NCc2ccccc2)c(=O)c2cc(F)c(N3CCN(C(=O)c4ccco4)CC3)cc21
IC50 (nadD; enzyme activity, inhibitor, released pyrophosphate): 3.7 ± 0.6 µM
